Measured values gathered from unrelated publications.
Parts stem from different laboratories: compare values within a part only.

Study 1
Target: Sal-like protein 4, full length isoform A (SALL4, Homo sapiens, UniProt Q9UJQ4, residues 1-1053)
UniProt Q9UJQ4, sequence (whole entry, looked up): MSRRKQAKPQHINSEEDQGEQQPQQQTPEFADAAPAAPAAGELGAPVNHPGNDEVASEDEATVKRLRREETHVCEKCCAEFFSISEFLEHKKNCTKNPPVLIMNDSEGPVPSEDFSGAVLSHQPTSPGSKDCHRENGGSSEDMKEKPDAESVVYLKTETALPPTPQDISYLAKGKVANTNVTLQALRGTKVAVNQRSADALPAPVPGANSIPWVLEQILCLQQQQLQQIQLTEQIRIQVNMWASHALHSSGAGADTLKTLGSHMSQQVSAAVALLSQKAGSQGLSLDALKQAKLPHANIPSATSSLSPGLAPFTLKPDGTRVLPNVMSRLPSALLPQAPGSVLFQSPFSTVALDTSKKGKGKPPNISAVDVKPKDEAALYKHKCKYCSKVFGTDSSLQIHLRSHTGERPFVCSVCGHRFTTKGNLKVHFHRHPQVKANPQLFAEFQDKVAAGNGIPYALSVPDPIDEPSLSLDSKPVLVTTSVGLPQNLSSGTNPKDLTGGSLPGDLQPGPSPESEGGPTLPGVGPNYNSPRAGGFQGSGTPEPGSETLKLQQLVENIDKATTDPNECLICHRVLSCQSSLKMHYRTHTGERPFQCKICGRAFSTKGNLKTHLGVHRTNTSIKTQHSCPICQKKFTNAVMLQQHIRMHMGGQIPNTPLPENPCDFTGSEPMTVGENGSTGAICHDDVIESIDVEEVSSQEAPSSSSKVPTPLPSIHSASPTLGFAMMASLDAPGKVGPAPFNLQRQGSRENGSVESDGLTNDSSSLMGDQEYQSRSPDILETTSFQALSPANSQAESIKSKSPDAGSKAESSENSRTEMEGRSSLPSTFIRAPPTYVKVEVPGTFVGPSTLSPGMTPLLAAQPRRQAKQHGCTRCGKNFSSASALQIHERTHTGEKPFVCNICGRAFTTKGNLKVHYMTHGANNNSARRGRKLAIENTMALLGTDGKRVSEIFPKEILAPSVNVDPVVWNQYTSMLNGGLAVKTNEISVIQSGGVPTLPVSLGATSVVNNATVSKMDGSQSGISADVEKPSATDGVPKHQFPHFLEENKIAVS
Technique: universal PBM
Form: double-stranded DNA, one strand shown
Matrix: in vitro
Tested at: 600 nM
Notes: 8-mer, flanks averaged, mean of replicates
Reading: higher = stronger binding
Oligonucleotide | E-score
GCACCTAC | -0.253
AATTTCTG | 0.281
CCATCCGG | -0.301
CTTGGGTA | 0.00396
GTAGTCCA | -0.0661

Study 2
Target: Interferon regulatory factor 7, full length, phosphomimetic (IRF7, Homo sapiens, UniProt Q92985, residues 1-503, S471D/S472D/S475D/S476D/S477D/S483D/S484D/S487D)
UniProt Q92985, sequence (whole entry, unmodified, looked up): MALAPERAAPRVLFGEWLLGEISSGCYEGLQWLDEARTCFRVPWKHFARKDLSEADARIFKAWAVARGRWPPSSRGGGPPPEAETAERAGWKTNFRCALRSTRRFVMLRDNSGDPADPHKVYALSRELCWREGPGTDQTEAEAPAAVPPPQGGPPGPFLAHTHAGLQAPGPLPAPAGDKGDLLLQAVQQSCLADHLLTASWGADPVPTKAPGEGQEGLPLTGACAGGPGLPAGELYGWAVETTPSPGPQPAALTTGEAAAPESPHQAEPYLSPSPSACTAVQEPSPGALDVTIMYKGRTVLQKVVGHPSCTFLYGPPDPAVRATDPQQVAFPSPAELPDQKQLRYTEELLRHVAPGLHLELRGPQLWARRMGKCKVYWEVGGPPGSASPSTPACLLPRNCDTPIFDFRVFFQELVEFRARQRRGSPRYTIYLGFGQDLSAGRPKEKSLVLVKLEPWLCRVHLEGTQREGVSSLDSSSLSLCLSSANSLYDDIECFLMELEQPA
Technique: protein-binding microarray
Form: double-stranded DNA, one strand shown
Matrix: in vitro
Tested at: 2200 nM top
Notes: 60-bp whole probe
Together with: salmon DNA 0.4 mg/ml
Reference: random background probes
Reading: higher = stronger binding
Oligonucleotide | fitted relative affinity
GCCTAGCACTTAGGTATCCTTCTCCTTTAGTGCTAGGTCTTGATTCGCTTGACGCTGCTG | 1.2 z-score
GCCTAGCACTTAGGACCGCTTCTCCTTTAGTGCTAGGTCTTGATTCGCTTGACGCTGCTG | 0.673 z-score
GCCTAGCACGACGGTTTCCGACTGGGGACGTGCTAGGTCTTGATTCGCTTGACGCTGCTG | 1.68 z-score
GCCTAGCACCTGTTTCCATCTCTCAAAAGGTGCTAGGTCTTGATTCGCTTGACGCTGCTG | 4.78 z-score

Study 3
Target: RNA binding protein fox-1 homolog 2, RRM domain, GST-SBP tag (RBFOX2, Homo sapiens, UniProt O43251-10, residues 100-194)
Technique: RNA Bind-n-Seq
Form: RNA
Matrix: in vitro
Tested at: 365 nM
Notes: natural RNA segment, single round, ends assumed
Reference: no-protein control
Reading: higher = stronger binding
Shared flanks, not repeated: GGGAGUUCUACAGUCCGACGAUC … UGGAAUUCUCGGGUGCCAA
Construct (chain): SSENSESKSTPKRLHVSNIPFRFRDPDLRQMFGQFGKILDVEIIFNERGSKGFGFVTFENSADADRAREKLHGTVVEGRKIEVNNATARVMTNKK
Oligonucleotide | RBNS enrichment (R)
AACCGCCCAGUGCAGGUAUUUCAGAAGGAGAAGGCUGGAGAAGGACAUGAGAUCAGGGCCUGCCCCCUGGGGAUCACAGCCUCACCCCUGCCCCUGUGGGACUCAUCCUU | 0.335
GCAAUUUUUAAUGAGGUUACUGAAUUGUUUAGUAUUCCUAAUAUGGCAUCCAGGUCAUCUUUUCUUUUCUCCAACCAUUAUUAAAAUAACUUGACACUUUGGGAGGCCAA | 0.57
AAAGGCCACCAUGAGGACAUCUCACCAACCUGUGCUCAGCAUGAACUGUGACAUCAGCCUUUGAUAGUAGGACAUUAUUUCUUGAUUUCCUUAUUAAAAGAAAAAAAUGG | 5.02
UUGCCCCUCCCCCACACUCACUGCCCCUCCCCCCAGCGUCACCUGGGAUUUGCAGAUGUGUUUAGAAACACGCCCAGACCUUGAACCUUGGGUUCAUGGAUUAGUUUUGU | 0.912
CAAUGAAUCCUUCCCGUUUUUCUUUUUAUGCCACACAGUGCAUUGUUUUUUCUACCUGCUUGUCUUAUUUUUAGAAUAAUUUAGAAAAACAAAACAAAGGCUGUUUUUCC | 3.64
GUAAGCCACACACCUGCCACUUAGCCAGAAUGCCCAGGAUCGCGUUGGUCACUGUUAUUUGCCUACUGCUGGAAGAAGGACAACCGCUGGCAAGGUAGCGUUCCCCAAUC | 0.429
UCUGCAUCAGUUGCUUCUAUAGAGCAUCAGCCCUCAUGUUUCAUUGUCUUAAUGUCGGGGAGCAGCCUGGUGUCCUGCCCCAGGUGUCCGCAUUUUUGCAUGGUAAGGAA | 4.46

Other studies, line by line
Molecule | target | test | system | conditions | how to read | quantity | result
PhoQ, residues 284 288 289 292 302 303 TLASMF | PhoP, residues 12 14 15 18 19 NHFRA (Escherichia coli, UniProt P23836) | Sort-seq, measured: YFP reporter | E. coli | PhoQ-PhoP variant library, together with: 10 µM Mg2+ | reference: high Mg2+ state, higher = stronger signaling | fold induction | 0.841
